Results pooled from the literature.
Protocols differ between the studies behind these lines. Numbers after ± are the reported error.
Target: Carbonic anhydrase 1 (CA1, Homo sapiens, UniProt P00915)
UniProt P00915, sequence (whole entry, looked up): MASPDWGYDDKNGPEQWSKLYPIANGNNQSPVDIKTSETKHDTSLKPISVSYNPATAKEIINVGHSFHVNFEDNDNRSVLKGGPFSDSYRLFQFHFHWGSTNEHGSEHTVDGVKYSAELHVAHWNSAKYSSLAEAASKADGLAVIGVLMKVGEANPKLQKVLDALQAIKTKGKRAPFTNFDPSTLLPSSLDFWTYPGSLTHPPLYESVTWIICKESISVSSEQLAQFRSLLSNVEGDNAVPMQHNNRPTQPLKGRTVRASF

Compound = COc1cccc(/C=N/NC(=O)CSc2nc3ccccc3c(=O)n2CCc2ccc(S(N)(=O)=O)cc2)c1; effect on = enzyme activity; mode = inhibitor; technique = stopped-flow; measurement = Ki; result = 756 nM
Compound = CC(=O)Nc1ccc(S(N)(=O)=O)cc1; effect on = enzyme activity; mode = inhibitor; measurement = Ki; result = 1330 nM
Compound = CC(=O)Nc1ccc(S(=O)(=O)N2CCN(C(=O)c3cc4ccccc4oc3=O)CC2)cc1; measurement = Ki; result = > 100000 nM
Compound = CC(=O)Nc1ncc(S(N)(=O)=O)s1; effect on = enzyme activity; mode = inhibitor; measurement = Ki; result = 465 nM
Compound = COc1ccc(NC(=O)CN2C(=O)/C(=N\Nc3ccc(S(N)(=O)=O)cc3)c3ccccc32)cc1; measurement = Ki; result = 776 nM
Compound = COc1cc(-c2ccnc3nc(Nc4ccc(S(N)(=O)=O)cc4)nn23)cc(OC)c1OC; effect on = enzyme activity; mode = inhibitor; technique = stopped-flow; measurement = Ki; result = 1230 nM
Compound = NS(=O)(=O)c1ccc(N/N=C2\C(=O)N(CC(=O)Nc3ccccc3Br)c3ccccc32)cc1; measurement = Ki; result = 708 nM
Compound = CC(C)c1ccc2c(c1)CC[C@H]1[C@](C)(C(=O)O)CCC[C@]21C; effect on = CO2 hydration activity; mode = inhibitor; technique = stopped-flow; pH = pH 7.4; temperature = 25 °C; measurement = IC50; result = 1350 ± 110 nM
Compound = NS(=O)(=O)c1ccc(NC(=O)NN[C@@H]2O[C@H](CO)[C@@H](O)[C@H]2O)cc1; effect on = enzyme activity; mode = inhibitor; measurement = IC50; result = 30800 nM
Compound = NS(=O)(=O)c1ccc(Nc2nc3nccc(-c4ccc5ccccc5c4)n3n2)cc1; effect on = enzyme activity; mode = inhibitor; technique = stopped-flow; measurement = Ki; result = 5870 nM
Compound = NS(=O)(=O)c1ccc(CCn2c(SCC(=O)N/N=C/c3ccccc3O)nc3ccccc3c2=O)cc1; effect on = enzyme activity; mode = inhibitor; technique = stopped-flow; measurement = Ki; result = 132 nM
Compound = NS(=O)(=O)c1ccc(NC(=O)NN[C@@H]2O[C@H](CO)[C@@H](O)[C@H](O)[C@@H]2O)cc1; effect on = enzyme activity; mode = inhibitor; measurement = IC50; result = 22400 nM
Compound = COCCOc1cc2ncnc(Nc3cccc(-c4cn(CCc5ccc(S(N)(=O)=O)cc5)nn4)c3)c2cc1OCCOC; effect on = enzyme activity; mode = inhibitor; technique = stopped-flow; measurement = Ki; result = 1030 nM
Compound = NS(=O)(=O)c1ccc(NC(=O)NN[C@@H]2OC[C@H](O)[C@H](O)[C@H]2O)cc1; effect on = enzyme activity; mode = inhibitor; measurement = IC50; result = 19400 nM
Compound = COc1ccc(/C(C)=N/NC(=O)CSc2nc3ccccc3c(=O)n2CCc2ccc(S(N)(=O)=O)cc2)cc1; effect on = enzyme activity; mode = inhibitor; technique = stopped-flow; measurement = Ki; result = 627 nM

For quick reference, copied from above:
Compound = CC(=O)Nc1ccc(S(=O)(=O)N2CCN(C(=O)c3cc4ccccc4oc3=O)CC2)cc1; measurement = Ki; result = > 100000 nM
Compound = CC(=O)Nc1ncc(S(N)(=O)=O)s1; effect on = enzyme activity; mode = inhibitor; measurement = Ki; result = 465 nM
